Assay results collected from several papers.
Every numbered part comes from another study and shows a few of its results, in no order.
Sequence of UniProt P01106 (368-449, looked up): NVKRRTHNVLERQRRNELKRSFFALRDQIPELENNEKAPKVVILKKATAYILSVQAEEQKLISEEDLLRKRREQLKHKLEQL

Block 1
Molecule: PhoQ, residues 284 288 289 292 302 303 AEGLLW
Method: Sort-seq
Item: YFP reporter
Matrix: E. coli
Notes: PhoQ-PhoP variant library
Together with: 10 µM Mg2+
Baseline: high Mg2+ state
Reading: higher = stronger signaling
Quantity: fold induction
PhoP, residues 12 14 15 18 19 TQALL (Escherichia coli, UniProt P23836): 4.6
PhoP, residues 12 14 15 18 19 NYFRM (Escherichia coli, UniProt P23836): 6.17
PhoP, residues 12 14 15 18 19 QYFSL (Escherichia coli, UniProt P23836): 3.26

Mixed results
Molecule type: double-stranded DNA, one strand shown
Matrix: in vitro
Tested at: not given
Reading: higher = stronger binding
SALL4 full length isoform B: Sal-like protein 4, full length isoform B (SALL4, Homo sapiens, UniProt Q9UJQ4-2, residues 1-616)
MNT bHLH-zipper, MAX partner unstated: Max-binding protein MNT, bHLH-zipper, MAX partner unstated (MNT, Homo sapiens, UniProt Q99583, residues 220-300)
Sequence of UniProt Q99583 (220-300, looked up): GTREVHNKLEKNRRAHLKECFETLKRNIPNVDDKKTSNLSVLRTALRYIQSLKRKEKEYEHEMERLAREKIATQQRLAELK
KAT6A winged helix 2, GST fusion: Histone acetyltransferase KAT6A, winged helix 2, GST fusion (KAT6A, Homo sapiens, UniProt Q92794, residues 85-181)
CGGGCTAA
E-score (SALL4 full length isoform B; universal PBM; 8-mer, flanks averaged, mean of replicates): -0.295

CATGCTAC
E-score (Myc proto-oncogene protein, bHLH-zipper, MAX partner unstated (MYC, Homo sapiens, UniProt P01106, residues 368-449); protein-binding microarray; k-mer, scored over probes, only values ≥0.25): 0.382

GCTAAATA
E-score (SALL4 full length isoform B; universal PBM; 8-mer, flanks averaged, mean of replicates): 0.257

ACGTTGAG
E-score (MNT bHLH-zipper, MAX partner unstated; protein-binding microarray; k-mer, scored over probes, only values ≥0.25): 0.298

CCGTGCCC
E-score (KAT6A winged helix 2, GST fusion; protein binding microarray; 8-mer, flanks averaged, mean of 2 arrays, mostly near background; baseline: not given): 0.025

CGTGGCTC
E-score (MNT bHLH-zipper, MAX partner unstated; protein-binding microarray; k-mer, scored over probes, only values ≥0.25): 0.382

GATGACGA
E-score (KAT6A winged helix 2, GST fusion; protein binding microarray; 8-mer, flanks averaged, mean of 2 arrays, mostly near background; baseline: not given): 0.0541

For quick reference, copied from above (mixed results):
ACGTTGAG
E-score (MNT bHLH-zipper, MAX partner unstated; protein-binding microarray; k-mer, scored over probes, only values ≥0.25): 0.298

CCGTGCCC
E-score (KAT6A winged helix 2, GST fusion; protein binding microarray; 8-mer, flanks averaged, mean of 2 arrays, mostly near background; baseline: not given): 0.025
